Measured values gathered from unrelated publications.
Each numbered part is a random draw from the data of one study; scales do not carry over between parts. Positions count from the first letter of the parent shown.

Study 1 — method: aptamer microarray, sandwich; molecule type: DNA with 2'F-ANA; medium: in vitro; tested at: 200 nM; with: Cy3 exosite-II aptamer, 400 nM; reading: higher = stronger binding; sequence: GGTTGGTGTGGTTGG
Target: Prothrombin, mature alpha-thrombin (F2, Homo sapiens, UniProt P00734)
Notes: whole 15-mer aptamer, many near background
| Modification | mean fluorescence intensity [a.u.] |
| --- | --- |
| 2'F-ANA at 4 5 6 7 8 9 10 11 12 14 | 48.6 |
| 2'F-ANA at 1 5 8 9 10 11 15 | 46.4 |
| 2'F-ANA at 1 2 4 5 8 | 64.1 |
| 2'F-ANA at 2 4 5 6 11 12 13 | 75.7 |
| 2'F-ANA at 2 4 5 8 9 11 12 13 14 15 | 49.2 |

Study 2 — target: CCNE2, cyclin fold, Cln2 fusion (human); method: yeast growth competition, sequencing; medium: yeast; notes: weak parent motif; relative to: not given; reading: higher = stronger binding
Starting sequence: CDC6 docking peptide (human); TLKGRRLVFDNQL; partner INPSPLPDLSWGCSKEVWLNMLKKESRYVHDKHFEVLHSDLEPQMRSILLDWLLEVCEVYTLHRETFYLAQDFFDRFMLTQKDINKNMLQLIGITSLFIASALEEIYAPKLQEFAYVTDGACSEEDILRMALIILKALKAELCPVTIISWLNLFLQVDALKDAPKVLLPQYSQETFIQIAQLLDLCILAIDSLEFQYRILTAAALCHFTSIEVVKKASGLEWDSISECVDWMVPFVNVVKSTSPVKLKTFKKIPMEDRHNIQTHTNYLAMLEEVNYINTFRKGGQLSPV
| Variant | normalised enrichment score |
| --- | --- |
| L13A | 0.423 |
| L13I | 1.12 |
| D10Q | 0.0184 |
| N11T | 0.628 |
| R6G | -0.263 |

Study 3 — method: DHFR PCA, deep sequencing; medium: yeast; with: (+)-ABA 0 µM; relative to: wild-type fitted maximum; reading: higher = stronger binding
Target: ABI1, truncated, D143A, DHFR fusion (Arabidopsis thaliana)
Notes: methotrexate growth selection, single substitutions
Starting sequence: PYL1, truncated, DHFR fusion (Arabidopsis thaliana); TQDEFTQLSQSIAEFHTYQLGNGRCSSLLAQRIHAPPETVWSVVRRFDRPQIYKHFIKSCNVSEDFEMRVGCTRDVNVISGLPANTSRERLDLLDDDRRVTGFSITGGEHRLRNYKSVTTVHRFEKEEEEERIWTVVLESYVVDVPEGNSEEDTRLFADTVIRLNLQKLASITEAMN
| Variant | relative binding score |
| --- | --- |
| N165R | 10.4% |
| I133D | 46.8% |
| F47I | -0.473% |
| K116M | 0.957% |
| E130N | 25.8% |

Other studies, line by line
| Substance | target | test | test system | conditions | scale | quantity | value |
| --- | --- | --- | --- | --- | --- | --- | --- |
| PhoQ, residues 284 288 289 292 302 303 SSYNSA | PhoP, residues 12 14 15 18 19 LYHSL (Escherichia coli, UniProt P23836) | Sort-seq, refers to: YFP reporter | E. coli | PhoQ-PhoP variant library, with: 10 µM Mg2+ | relative to: high Mg2+ state, higher = stronger signaling | fold induction | 26.2 |

Some of these lines once more (study 1):
| Modification | mean fluorescence intensity [a.u.] |
| --- | --- |
| 2'F-ANA at 1 2 4 5 8 | 64.1 |
| 2'F-ANA at 2 4 5 6 11 12 13 | 75.7 |
